Published values pooled from the literature.
Protocols differ between the studies behind these lines. Several values in a cell are separate wells, animals, samples, runs or records. ± marks the error that the study gave.
ATRX F284Y/K251R: Transcriptional regulator ATRX (ATRX, Homo sapiens, UniProt P46100, F284Y/K251R)
XPO1: Exportin-1 (XPO1, Homo sapiens, UniProt O14980)
Chain of UniProt O14980 (whole entry, looked up): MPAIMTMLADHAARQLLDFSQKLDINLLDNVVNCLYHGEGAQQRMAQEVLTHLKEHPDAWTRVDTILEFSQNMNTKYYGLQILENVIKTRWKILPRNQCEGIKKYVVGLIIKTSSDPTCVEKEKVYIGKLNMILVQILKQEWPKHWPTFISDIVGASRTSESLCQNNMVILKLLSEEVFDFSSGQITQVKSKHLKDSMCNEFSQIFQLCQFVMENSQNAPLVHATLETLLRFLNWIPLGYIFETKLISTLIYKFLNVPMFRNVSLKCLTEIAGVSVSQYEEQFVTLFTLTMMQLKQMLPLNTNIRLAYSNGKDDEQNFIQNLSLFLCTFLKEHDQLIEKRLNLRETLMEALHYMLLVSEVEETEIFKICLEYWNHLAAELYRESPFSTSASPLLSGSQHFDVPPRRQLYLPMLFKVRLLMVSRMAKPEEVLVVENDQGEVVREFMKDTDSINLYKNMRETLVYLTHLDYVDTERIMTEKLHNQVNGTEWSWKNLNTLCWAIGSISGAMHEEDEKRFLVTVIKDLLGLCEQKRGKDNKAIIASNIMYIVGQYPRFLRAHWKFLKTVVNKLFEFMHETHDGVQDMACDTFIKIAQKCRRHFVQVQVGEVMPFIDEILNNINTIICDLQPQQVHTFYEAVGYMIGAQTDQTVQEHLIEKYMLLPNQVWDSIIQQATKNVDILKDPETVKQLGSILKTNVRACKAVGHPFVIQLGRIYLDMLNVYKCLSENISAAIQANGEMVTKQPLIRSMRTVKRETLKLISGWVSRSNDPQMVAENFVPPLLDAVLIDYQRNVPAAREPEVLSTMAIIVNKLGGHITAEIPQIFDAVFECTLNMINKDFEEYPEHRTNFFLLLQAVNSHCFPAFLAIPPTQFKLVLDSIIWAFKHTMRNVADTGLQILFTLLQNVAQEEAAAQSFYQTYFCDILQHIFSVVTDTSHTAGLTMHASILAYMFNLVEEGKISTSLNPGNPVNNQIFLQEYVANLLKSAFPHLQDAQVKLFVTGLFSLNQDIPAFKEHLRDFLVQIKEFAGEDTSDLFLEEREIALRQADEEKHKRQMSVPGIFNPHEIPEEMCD
Nuclear receptor subfamily 2 group C member 2 ligand-binding domain: Nuclear receptor subfamily 2 group C member 2, ligand-binding domain (Homo sapiens, UniProt P49116)
Chain of UniProt P49116 (whole entry, looked up): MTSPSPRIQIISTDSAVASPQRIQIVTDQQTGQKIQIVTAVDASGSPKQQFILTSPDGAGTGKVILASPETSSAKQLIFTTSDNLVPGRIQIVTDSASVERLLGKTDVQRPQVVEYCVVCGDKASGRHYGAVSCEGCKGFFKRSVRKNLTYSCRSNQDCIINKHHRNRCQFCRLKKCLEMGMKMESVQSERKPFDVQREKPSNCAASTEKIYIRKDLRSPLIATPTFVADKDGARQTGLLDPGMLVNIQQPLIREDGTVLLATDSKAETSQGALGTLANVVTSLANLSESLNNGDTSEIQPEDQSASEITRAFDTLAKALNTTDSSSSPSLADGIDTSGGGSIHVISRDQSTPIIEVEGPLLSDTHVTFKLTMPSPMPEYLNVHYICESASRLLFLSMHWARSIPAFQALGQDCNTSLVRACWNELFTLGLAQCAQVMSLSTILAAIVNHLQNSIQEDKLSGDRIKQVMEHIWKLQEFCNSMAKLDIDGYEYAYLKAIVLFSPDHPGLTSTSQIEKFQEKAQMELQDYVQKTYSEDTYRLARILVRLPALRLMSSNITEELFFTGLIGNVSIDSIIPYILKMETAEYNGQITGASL
HTR4: 5-hydroxytryptamine receptor 4 (HTR4, Homo sapiens, UniProt Q13639)
Chain of UniProt Q13639 (whole entry, looked up): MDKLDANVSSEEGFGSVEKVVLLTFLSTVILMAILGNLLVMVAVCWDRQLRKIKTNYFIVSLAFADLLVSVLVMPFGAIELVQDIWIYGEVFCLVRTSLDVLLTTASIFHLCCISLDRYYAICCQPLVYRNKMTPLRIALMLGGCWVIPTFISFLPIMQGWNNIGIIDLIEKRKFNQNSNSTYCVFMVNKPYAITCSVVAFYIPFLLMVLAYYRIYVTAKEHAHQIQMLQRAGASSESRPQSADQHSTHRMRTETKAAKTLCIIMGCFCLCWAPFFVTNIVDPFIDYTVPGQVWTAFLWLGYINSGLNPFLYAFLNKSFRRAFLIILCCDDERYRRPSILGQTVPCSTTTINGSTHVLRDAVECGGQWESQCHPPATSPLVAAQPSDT
YTH domain-containing protein 1: YTH domain-containing protein 1 (Homo sapiens, UniProt Q96MU7)
Chain of UniProt P51575 (whole entry, unmodified, looked up): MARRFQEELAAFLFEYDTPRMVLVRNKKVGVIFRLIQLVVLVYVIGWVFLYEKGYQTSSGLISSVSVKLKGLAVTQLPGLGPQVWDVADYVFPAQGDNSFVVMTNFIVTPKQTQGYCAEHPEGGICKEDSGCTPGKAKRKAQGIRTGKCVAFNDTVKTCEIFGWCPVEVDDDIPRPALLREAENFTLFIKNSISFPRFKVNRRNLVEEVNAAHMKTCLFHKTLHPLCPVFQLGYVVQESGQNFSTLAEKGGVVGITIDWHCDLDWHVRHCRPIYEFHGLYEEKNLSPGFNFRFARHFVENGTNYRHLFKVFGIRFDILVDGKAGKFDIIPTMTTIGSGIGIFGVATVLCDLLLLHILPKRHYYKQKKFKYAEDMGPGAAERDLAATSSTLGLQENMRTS
Chain of UniProt Q16774 (whole entry, unmodified, looked up): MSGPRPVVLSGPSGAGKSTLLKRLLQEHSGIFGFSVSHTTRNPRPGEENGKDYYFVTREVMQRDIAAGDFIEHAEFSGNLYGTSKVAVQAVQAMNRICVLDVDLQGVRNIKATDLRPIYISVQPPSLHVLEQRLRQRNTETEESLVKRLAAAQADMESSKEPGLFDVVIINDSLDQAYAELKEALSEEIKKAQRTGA
Chain of UniProt P11247 (whole entry, looked up): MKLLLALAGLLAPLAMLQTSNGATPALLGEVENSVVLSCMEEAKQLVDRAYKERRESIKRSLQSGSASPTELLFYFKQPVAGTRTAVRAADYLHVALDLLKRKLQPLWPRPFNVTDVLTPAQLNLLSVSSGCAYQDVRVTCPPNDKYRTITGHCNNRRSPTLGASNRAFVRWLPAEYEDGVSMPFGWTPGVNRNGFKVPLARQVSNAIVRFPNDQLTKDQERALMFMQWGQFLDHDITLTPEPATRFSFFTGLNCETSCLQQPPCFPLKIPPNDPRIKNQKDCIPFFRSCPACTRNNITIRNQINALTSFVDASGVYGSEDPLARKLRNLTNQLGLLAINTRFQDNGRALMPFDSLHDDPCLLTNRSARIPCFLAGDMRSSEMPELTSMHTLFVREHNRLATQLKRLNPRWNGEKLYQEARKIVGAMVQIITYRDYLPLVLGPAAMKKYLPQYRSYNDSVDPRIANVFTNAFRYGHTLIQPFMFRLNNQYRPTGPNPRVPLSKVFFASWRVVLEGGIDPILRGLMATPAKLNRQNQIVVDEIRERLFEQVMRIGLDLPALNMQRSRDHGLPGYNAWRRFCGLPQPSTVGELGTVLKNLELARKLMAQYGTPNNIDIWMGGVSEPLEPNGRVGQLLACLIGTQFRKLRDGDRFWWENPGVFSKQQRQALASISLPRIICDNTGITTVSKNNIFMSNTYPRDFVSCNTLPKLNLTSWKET
Chain of UniProt P11388 (whole entry, looked up): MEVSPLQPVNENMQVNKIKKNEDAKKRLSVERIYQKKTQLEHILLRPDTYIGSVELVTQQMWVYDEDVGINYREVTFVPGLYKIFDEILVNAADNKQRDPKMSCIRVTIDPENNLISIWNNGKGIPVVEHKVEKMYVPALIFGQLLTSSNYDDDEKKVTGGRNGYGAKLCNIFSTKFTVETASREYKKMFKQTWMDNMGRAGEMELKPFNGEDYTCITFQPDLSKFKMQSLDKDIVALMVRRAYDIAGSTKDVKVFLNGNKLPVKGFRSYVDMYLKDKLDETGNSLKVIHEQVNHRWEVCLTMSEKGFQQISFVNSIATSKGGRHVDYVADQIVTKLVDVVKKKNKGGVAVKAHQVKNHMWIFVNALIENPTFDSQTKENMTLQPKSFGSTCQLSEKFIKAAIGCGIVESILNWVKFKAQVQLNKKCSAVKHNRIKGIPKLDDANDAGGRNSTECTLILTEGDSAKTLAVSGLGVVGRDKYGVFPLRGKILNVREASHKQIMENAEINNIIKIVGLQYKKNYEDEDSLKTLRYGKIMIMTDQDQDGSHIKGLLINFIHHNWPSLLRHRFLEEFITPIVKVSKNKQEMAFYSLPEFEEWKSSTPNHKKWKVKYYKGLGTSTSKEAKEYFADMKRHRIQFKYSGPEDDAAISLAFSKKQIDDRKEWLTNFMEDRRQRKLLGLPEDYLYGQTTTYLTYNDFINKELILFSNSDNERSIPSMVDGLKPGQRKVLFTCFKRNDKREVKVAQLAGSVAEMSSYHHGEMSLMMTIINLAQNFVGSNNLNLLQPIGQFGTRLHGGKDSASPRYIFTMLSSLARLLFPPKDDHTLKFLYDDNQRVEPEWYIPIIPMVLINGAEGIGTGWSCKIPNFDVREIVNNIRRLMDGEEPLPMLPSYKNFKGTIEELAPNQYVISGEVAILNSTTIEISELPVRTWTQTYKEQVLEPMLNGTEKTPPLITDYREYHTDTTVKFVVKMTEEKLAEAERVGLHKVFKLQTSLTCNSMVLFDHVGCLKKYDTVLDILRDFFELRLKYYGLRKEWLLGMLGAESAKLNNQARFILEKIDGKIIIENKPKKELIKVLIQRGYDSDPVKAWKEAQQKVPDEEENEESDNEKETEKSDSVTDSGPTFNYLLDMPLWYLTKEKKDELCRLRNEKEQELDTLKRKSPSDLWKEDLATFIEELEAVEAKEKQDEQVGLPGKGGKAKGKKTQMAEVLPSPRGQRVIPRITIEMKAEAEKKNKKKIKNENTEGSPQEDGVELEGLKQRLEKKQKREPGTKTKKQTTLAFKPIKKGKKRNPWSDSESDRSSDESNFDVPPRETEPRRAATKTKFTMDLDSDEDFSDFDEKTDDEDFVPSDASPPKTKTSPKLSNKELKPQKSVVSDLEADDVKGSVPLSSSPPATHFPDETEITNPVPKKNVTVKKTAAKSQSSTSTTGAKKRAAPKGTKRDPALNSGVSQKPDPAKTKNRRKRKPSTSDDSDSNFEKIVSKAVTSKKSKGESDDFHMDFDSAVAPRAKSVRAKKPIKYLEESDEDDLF

Nc1nc2c(ncn2[C@@H]2O[C@H](COP(=O)(O)O)[C@@H](O)[C@H]2O)c(=O)[nH]1 — reaction rate (GUK1 (Homo sapiens, UniProt Q16774, R148A); enzyme activity, NADH-coupled; 31.25 µM): 2.44 s⁻¹ and 0.475 s⁻¹ and 1.89 s⁻¹
C[C@H](N)C(=O)N[C@@H](CCCNC(=N)N(C)C)C(=O)N[C@H](C(=O)N[C@@H](CCCCN)C(=O)N[C@@H](CCC(N)=O)C(=O)N[C@H](C(=O)N[C@@H](C)C(=O)N[C@@H](CCCNC(=N)N)C(=O)N[C@@H](CCCCN)C(=O)N[C@@H](CO)C(=O)O)[C@@H](C)O)[C@@H](C)O — binding entropy (ATRX F284Y/K251R; isothermal titration calorimetry; concentration not given, pH 7.5, 25.0 °C): 7.3 cal/mol/K
Nc1ncnc2c1ncn2[C@@H]1O[C@H](COP(=O)(O)OP(=O)(O)O)[C@@H](O)[C@H]1O — Kia (PKM (Oryctolagus cuniculus, UniProt P11974); substrate; pH 8.0, 25 °C, MgCl2, KCl, together with: PEP varied): 106 µM
O=C(/C=C\n1cnc(-c2cc(C(F)(F)F)cc(C(F)(F)F)c2)n1)NNc1cnccn1 — cells with nuclear reporter (XPO1; nuclear export, high content imaging; HeLa Kyoto reporter; 0.03 µM, 2 h): 1.86% and 2.83%
C1=C/COCc2cc(ccc2OCCN2CCCC2)Nc2nccc(n2)-c2cccc(c2)COC/1 — percent of control (ACVR2B (Homo sapiens, UniProt Q13705); concentration not given): 63%
CCCCC[C@H](O)/C=C/[C@H]1C(=O)C[C@H](O)[C@@H]1C/C=C\CCCC(=O)O — activation (PTGDR (Homo sapiens, UniProt Q13258, D262A); agonist; 0.1562 µM): 88.8%
Nc1ncnc2c1ncn2[C@@H]1O[C@H](COP(=O)(O)CP(=O)(O)OP(=O)(O)O)[C@@H](O)[C@H]1O — specific binding (P2X purinoceptor 1 (P2RX1, Homo sapiens, UniProt P51575, E122A); saturation binding; 25 nM): 192 corrected cpm and 276 corrected cpm and 178 corrected cpm
[H]/N=C(/N)NS(=O)(=O)c1ccc(N)cc1 — koff (Nuclear receptor subfamily 2 group C member 2 ligand-binding domain; SPR imaging; 600 nM): 2.34e-05 s⁻¹
O=C1OC(c2ccccc2)=N/C1=C\c1ccc(O)cc1 — Km (Pancreatic alpha-amylase (Homo sapiens, UniProt P04746); inhibitor, Lineweaver-Burk; 300 ppm, together with: starch substrate): 1940 µM
O=C(CN1CCO[C@@H](COc2ccccn2)C1)N1CCc2ccccc21 — inhibition (HTR4; radioligand binding; concentration not given): -16.8%
CC(C)C[C@@H]1NC(=O)[C@H](C(C)C)NC(=O)CNC(=O)[C@H](CC(N)=O)NC(=O)[C@@H]2CCCN2C(=O)[C@H](Cc2ccc(O)cc2)NC(=O)[C@H](CCCNC(=N)N)NC(=O)[C@H](Cc2ccccc2)NC(=O)[C@@H](NC(=O)[C@H](CCCCN)NC(=O)[C@H](C)NC(=O)[C@H](CO)NC(=O)[C@H](C)NC(=O)[C@@H](N)Cc2ccc(O)cc2)CSSC[C@@H](C(=O)N[C@H](C(N)=O)[C@@H](C)O)NC(=O)[C@H](C)NC1=O — -TΔS (Alpha-2-HS-glycoprotein, asialo (AHSG, Bos taurus, UniProt P12763); binding, isothermal titration calorimetry; pH 7.0, 25 °C, together with: asialofetuin): -3.33 kcal/mol
O=c1nc(SCc2cc(F)cc(C(F)(F)F)c2)nc(SCc2ccc3sccc3c2)[nH]1 — linear DNA (TOP2A (Homo sapiens, UniProt P11388); DNA cleavage, competition with etoposide; 15.6 µM, together with: etoposide 50 µM): 11.3% and 9.52%
O=C(c1ccc(OCCN2CCCCC2)cc1)c1c(-c2ccc(O)cc2)sc2cc(O)ccc12 — koff (Nuclear receptor subfamily 2 group C member 2 ligand-binding domain; SPR imaging; 600 nM): 9.62e-06 s⁻¹
C=CC(=O)N1CCC(COCC(=O)N2CCN(c3nc(-c4cnc(N)nc4C(F)F)nc(N4CCOC[C@@H]4C)n3)CC2)CC1 — remaining binding (EPHA6 (Homo sapiens, UniProt Q9UF33); KINOMEscan; 1 µM): 100%
CCCCC[S+]([O-])c1n[nH]c(N)n1 (stereo not drawn) — fold enrichment (YTH domain-containing protein 1; binding, affinity selection mass spectrometry; baseline: other proteins in batch): 0.547
O=C1OC(c2ccccc2)=N/C1=C\c1ccccc1 — Vmax (MAL12 (Saccharomyces cerevisiae S288c, UniProt P53341); inhibitor, Lineweaver-Burk; 1600 ppm, together with: pNPG substrate): 0.042 mM/min
O=C(COP(=O)(O)O)[C@@H](O)[C@H](O)[C@H](O)COP(=O)(O)O — thermal stability ratio (Small ribosomal subunit protein uS11 (Homo sapiens, UniProt P62263); thermal proteome profiling, measured: RPS14; HepG2 cell lysate; concentration not given, 57 over 37 °C, mean; baseline: compound over control): 0.662
CCS(=O)(=O)c1nc(C2CC2)cc(C(F)(F)F)n1 — cells with nuclear reporter (XPO1; nuclear export, high content imaging; HeLa Kyoto reporter; 0.5 µM, 2 h): 3.37% and 2.44% and 4.48%
Nc1nc2c(ncn2[C@@H]2O[C@H](COP(=O)(O)OP(=O)(O)O)[C@@H](O)[C@H]2O)c(=O)[nH]1 — ΔH of binding (GUK1 (Homo sapiens, UniProt Q16774); ITC; concentration not given): -6.51 ± 0.8 kcal/mol
C=CC(=O)N1CCC(C(=O)NCC(=O)N2CCN(c3nc(-c4cnc(N)nc4C(F)F)nc(N4CCOCC4)n3)CC2)CC1 — remaining binding (EGFR (Homo sapiens, UniProt P00533, G719C); KINOMEscan; 1 µM): 87%
CCS(=O)(=O)N1CC(CC#N)(n2cc(-c3ncnc4[nH]ccc34)cn2)C1 — bimolecular quenching constant (ORM1 (Homo sapiens, UniProt P02763); fluorescence quenching; 293 K): 5.92e+12 ± 4.1e+11 M⁻¹ s⁻¹
COc1cccc(OC[C@@H]2CN(CC(=O)N3CCc4ccccc43)CCO2)c1 — inhibition (HTR4; radioligand binding; concentration not given): 10.9%
CC(C)OCCn1c(=S)[nH]c(=O)c2[nH]ccc21 — protein level (Myeloperoxidase (Mus musculus, UniProt P11247); ELISA, measured: myeloperoxidase; mice, zymosan or thioglycolate peritonitis, peritoneal lavage; 30 mg/kg): 1820 ng/mL and 2630 ng/mL and 2140 ng/mL
Nc1ccn([C@@H]2CS[C@H](CO)O2)c(=O)n1 — koff (Nuclear receptor subfamily 2 group C member 2 ligand-binding domain; SPR imaging; 600 nM): 4.73e-05 s⁻¹
CC(=O)N[C@@H](COP(=O)(O)O)C(=O)N1CCC[C@H]1C(=O)N[C@H](C(=O)N[C@@H](Cc1ccccc1)C(N)=O)[C@@H](C)O — ΔG (Breast cancer type 1 susceptibility protein, tandem BRCT domains (BRCA1, Homo sapiens, UniProt P38398); binding, isothermal titration calorimetry; BRCT domain, BACH1 peptide): -7.7 ± 0.1 kcal/mol
Cn1c([N+](=O)[O-])cnc1COC(N)=O — koff (Nuclear receptor subfamily 2 group C member 2 ligand-binding domain; SPR imaging; 600 nM): 1.57e-06 s⁻¹
C=C1CN(S(=O)(=O)c2ccc(C)cc2)CCCN(Cc2ccccc2)CCCN(S(=O)(=O)c2ccc(C)cc2)C1 — FLuc/RLuc ratio (Protein transport protein Sec61 subunit alpha isoform 1 (Homo sapiens, UniProt P61619); measured: control signal peptide-FLuc reporter; HEK293; 0.013 mM, 6 h): 1.01
Cn1cc(-c2cnc3ccc(NC(=O)Nc4ccc(F)c(Br)c4)cc3n2)cn1 — inhibition (IKBKB (Homo sapiens, UniProt O14920); kinase binding, KiNativ profiling, measured: Lys1 peptide; PANC-1 lysate; 10 µM): 5.7%
CC1(C)Cc2c(sc(NC(=O)c3ccn[nH]3)c2C(N)=O)C(C)(C)O1 — closed time constant (CFTR (Homo sapiens, UniProt P13569, F312A); single-channel patch clamp; 20 µM, together with: ATP 2 mM): 293 ± 90 ms
COc1cc(/C=C/c2ccc(O)cc2)cc(OC)c1 — koff fold decrease (O-methyltransferase (Sorghum bicolor, UniProt A0A1B6PFV1); biolayer interferometry; together with: saturating SAH; baseline: apo protein): 12.8 fold
Nc1ncnc2c1ncn2[C@@H]1O[C@H](COP(=O)(O)OP(=O)(O)OP(=O)(O)O)[C@@H](O)[C@H]1O — mean long closed time (ATP-sensitive inward rectifier potassium channel 1 (Rattus norvegicus, UniProt P35560); inside-out patch clamp; renal principal cells, rat; 0.4 mM): 600 ms
O=S(=O)(O)C1CCNCC1 — normalised MST signal (SLC6A6 (Homo sapiens, UniProt P31641, G62A); binding, microscale thermophoresis; 61 nM, room temperature, together with: 50 nM labelled protein; higher = more binding): 0.015
CC[C@@H]1[C@H](F)C(=O)N[C@@H]1COc1nccc2cc(C(N)=O)c(OC)cc12 — inhibition (MARK2 (Homo sapiens, UniProt Q7KZI7); ATP-site probe binding, ActivX profiling; THP-1 cell lysate; 0.01 mM, Lys2 site): 12.7%
CCN1CCC[C@H]1CNC(=O)c1c(O)c(Cl)cc(Cl)c1OC — log2 fold change (Mas-related G-protein coupled receptor member G (MRGPRG, Homo sapiens, UniProt Q86SM5); β-arrestin recruitment, TANGO luminescence, measured: MRGPRG; concentration not given; baseline: basal luminescence): -0.00537
Oc1ccccc1-c1n[nH]cc1-c1ccnc2ccccc12 — log2 fold change (Serine/threonine-protein kinase GIN4 (GIN4, Candida albicans, UniProt Q59W62); kinase binding, MIB/MS competition; Candida albicans lysate; 1 µM; baseline: DMSO, negative = stronger binding): 0.13
CCCC[C@H]1CN(c2cccc(OC(F)(F)F)c2)C(=O)CN1Cc1cncn1Cc1ccc(Br)cc1 — IC50 (Cryptococcus neoformans farnesyltransferase; enzyme activity, inhibitor, fluorescence; together with: 1 µM FPP, 0.5 µM dansylated peptide): 190 ± 60 nM
C[C@H](CCC(C)(C)O)[C@H]1CC[C@H]2[C@@H]3CC=C4C[C@@](C)(O)CC[C@]4(C)[C@H]3CC[C@]12C — potentiation (Ionotropic glutamate receptor NMDA 1/2C (Homo sapiens, UniProt Q05586+Q14957); ion current, positive allosteric modulator, automated patch clamp; HEK293; concentration not given, together with: 0.8 µM glutamate, glycine): no effect
Cc1cccc(N2CC(C(=O)O)CC2=O)c1 (stereo not drawn) — fold enrichment (YTH domain-containing protein 1; binding, affinity selection mass spectrometry; baseline: other proteins in batch): 0.791
CCCC[C@H]1CN(c2cccc(OC(F)(F)F)c2)C(=O)CN1Cc1cncn1Cc1ccc(F)c(C#N)c1 — IC50 (Cryptococcus neoformans farnesyltransferase; enzyme activity, inhibitor, fluorescence; together with: 1 µM FPP, 0.5 µM dansylated peptide): 180 ± 100 nM
N#Cc1ccc2c(-c3ccncc3)c(-c3ccc(F)cc3)nn2c1 — receptor occupancy (RIPK2 (Homo sapiens, UniProt O43353); NanoBRET; HEK293; 1.0 µM): 40 to 70%
COc1cc(C(=O)NS(=O)(=O)c2ccccc2C)ccc1Cc1cn(C)c2ccc(NC(=O)OC3CCCC3)cc12 — koff (Nuclear receptor subfamily 2 group C member 2 ligand-binding domain; SPR imaging; 600 nM): 1.63e-06 s⁻¹
CN=C(NC)NCCC[C@H](NC(=O)[C@H](C)N)C(=O)N[C@H](C(=O)N[C@@H](CCCCN)C(=O)N[C@@H](CCC(N)=O)C(=O)N[C@H](C(=O)N[C@@H](C)C(=O)N[C@@H](CCCNC(=N)N)C(=O)N[C@@H](CCCCN)C(=O)N[C@@H](CO)C(=O)O)[C@@H](C)O)[C@@H](C)O — binding enthalpy (ATRX F284Y/K251R; isothermal titration calorimetry; concentration not given, pH 7.5, 25.0 °C): -4.39 kcal/mol
CN(C)C(=O)C(CCN1CCC(O)(c2ccc(Cl)cc2)CC1)(c1ccccc1)c1ccccc1 — normalized Gmax (Calcium-activated potassium channel subunit alpha-1, with LRRC26 γ1 subunit (KCNMA1, Homo sapiens, UniProt Q12791); BK current, inhibitor, inside-out patch clamp; excised membrane patch; 0.1 µM, γ1 coexpressed, individual fits, together with: nominally 0 Ca2+ cytosolic; baseline: without loperamide): 0.906 ± 0.028
CC1(C)CC2(C)OC(=O)NC2(C)c2ccccc21 (stereo not drawn) — log fold enrichment (DCAF1 (Homo sapiens, UniProt Q9Y4B6); binding, affinity selection mass spectrometry; baseline: other proteins in batch): -0.0886
CC[C@H](C)[C@@H]1NC(=O)[C@H]([C@@H](C)O)NC(=O)[C@@H]2CCCN2C(=O)[C@H](CC(C)C)NC(=O)[C@H](Cc2ccc(O)cc2)NC(=O)CSC[C@@H](C(N)=O)NC(=O)[C@H](CC(C)C)NC(=O)[C@@H]2CCCN2C(=O)[C@H](Cc2c[nH]cn2)NC(=O)[C@H](Cc2c[nH]c3ccccc23)NC(=O)[C@H](CC(C)C)NC(=O)[C@H](Cc2c[nH]cn2)NC(=O)CNC(=O)[C@H](C(C)C)NC(=O)CNC(=O)[C@H]([C@@H](C)O)NC1=O — -TΔS (VPS35/VPS29 (Homo sapiens, UniProt Q96QK1+Q9UBQ0); binding, ITC; 25 °C, heterodimer): 2.1 ± 1.1 kcal/mol

Some of these lines once more:
O=C(c1ccc(OCCN2CCCCC2)cc1)c1c(-c2ccc(O)cc2)sc2cc(O)ccc12 — koff (Nuclear receptor subfamily 2 group C member 2 ligand-binding domain; SPR imaging; 600 nM): 9.62e-06 s⁻¹
Nc1ncnc2c1ncn2[C@@H]1O[C@H](COP(=O)(O)OP(=O)(O)O)[C@@H](O)[C@H]1O — Kia (PKM (Oryctolagus cuniculus, UniProt P11974); substrate; pH 8.0, 25 °C, MgCl2, KCl, together with: PEP varied): 106 µM
O=S(=O)(O)C1CCNCC1 — normalised MST signal (SLC6A6 (Homo sapiens, UniProt P31641, G62A); binding, microscale thermophoresis; 61 nM, room temperature, together with: 50 nM labelled protein; higher = more binding): 0.015
Oc1ccccc1-c1n[nH]cc1-c1ccnc2ccccc12 — log2 fold change (Serine/threonine-protein kinase GIN4 (GIN4, Candida albicans, UniProt Q59W62); kinase binding, MIB/MS competition; Candida albicans lysate; 1 µM; baseline: DMSO, negative = stronger binding): 0.13
